Published values pooled from the literature.
Every numbered part comes from another study and shows a few of its results, in no order. Changes are numbered by the printed parent chain.

Study 1
Target: NFE2L2, bZIP domain (human)
Technique: DHFR protein complementation
Medium: yeast
Notes: single substitutions, most at no-binding floor
Relative to: wild-type JUN-FOS pair
Reading: higher = stronger binding
Parent: JUN, bZIP domain (human); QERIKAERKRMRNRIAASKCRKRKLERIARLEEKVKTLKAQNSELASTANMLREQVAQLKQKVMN; partner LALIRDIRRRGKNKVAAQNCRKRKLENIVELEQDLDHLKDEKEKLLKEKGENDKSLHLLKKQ
| Substitution | binding fitness [natural log] |
| --- | --- |
| A40Q | -1.31 |
| A57E | -1.16 |
| Q41M | -1.57 |
| L52F | -1.39 |
| R53D | -1.53 |
| L31E | -1.48 |
| S43Y | -1.5 |
| R53P | -1.51 |
| S43W | -1.43 |
| E32N | -1.49 |
| M51H | -1.47 |

Study 2
Target: RING finger protein unkempt homolog, zinc fingers 1-6, GST-SBP tag (UNK, Homo sapiens, UniProt Q9C0B0, residues 30-357)
Chain of UniProt Q9C0B0 (30-357, looked up): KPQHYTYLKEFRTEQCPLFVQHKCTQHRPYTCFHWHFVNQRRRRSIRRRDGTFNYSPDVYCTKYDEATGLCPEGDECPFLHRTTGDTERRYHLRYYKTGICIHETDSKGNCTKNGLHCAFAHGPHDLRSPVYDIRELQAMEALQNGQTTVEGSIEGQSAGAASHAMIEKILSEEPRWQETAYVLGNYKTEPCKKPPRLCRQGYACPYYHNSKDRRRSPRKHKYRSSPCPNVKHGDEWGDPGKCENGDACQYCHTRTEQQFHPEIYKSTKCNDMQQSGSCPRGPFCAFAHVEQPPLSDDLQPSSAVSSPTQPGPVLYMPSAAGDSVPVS
Technique: RNA Bind-n-Seq
Molecule type: RNA
Medium: in vitro
Tested at: not given
Notes: RNA with constant flanks, ends assumed
Relative to: input RNA pool
Reading: higher = stronger binding
Constant ends, left off below: GGGAGUUCUACAGUCCGACGAUC … CAACAGAGGAUUGAGCAUCA
| Sequence | bound/input enrichment [ratio] |
| --- | --- |
| UUUGUUUAUUUGCUAGUGAGUUUCUUUGUAACGUUGAUUUUAUUAAAUGAUAAUAUUUGGUCCGUAUGUCCUAUGUUAAUAAAAAUGAACAAAAUUAAUUUUGCUAUGUUCAGGUGUCUU | 0.733 |
| CAACAGGCUGGCCAUGAUGAAGGGGUUCUGGAUCGUUUGGUAGAUAGGAGGGAACGGCCAUCCGAAGGUGGCCGAACAAAUUCCAAUAACAACAACAGCAAUCCAUGUUCAGAACAAGAU | 0.147 |
| AUCCUCUCUGGAACAUCAGACCUGCUCCUUACCUUCGAUGAGGCUGAGGUCCGUAAAAUUAUCCGAGUUUGCAAAGGAAUUUUGGAAUAUCUUACAGUGGCAGAGGUGGUGGAGACUAUG | 0.27 |
| CAUUGACCUGUCAUGCCUCGCCUGGAGGCAGCAGCAUUGGGGAUCCCCUCCAUGGGGUUCACCGAAAUAAGUGCAAUUUUUUUACACCCCUGAAACAAUUUGAAGGGAAGCAGCAUUACU | 0.226 |
| UCCACGCCUGAGUUCUACCAAGUAUGCCACACCAAAAAGGAUUAUGAAGAAAUUGGACCCCGCAUUUGUCGUCACAAUCCAGUGUUUGGAGUCAUGUCGUAAAAUUGGCUUCAUAGUUAU | 0.344 |
| AUGAAGGAGGCGUUUGGCUUUAUCGAAAGAGGUGAUGUUGUAAAAGAGAUAUUCUUUCACUACCGUGAAUUUAAAGGUGACCUAGAAACCCUACAGCCUGGAGAUGACGUGGAAUUCACA | 0.246 |
| UCCGAGGGCAGCGGUGGGAGCACACCCGGCUGGCACACGAGGGAGGAGCAGCCGCCGUCGGCCGCUGAGGGCUACGCCUCGCAGGACGUGUUCAGCGCCACCGAGACCAGCCUGUGGUAC | 0.164 |
| GACAGUGAAAAUGCUGAACCAGAUCUGGACGACAAUGAGGAUGAGGAGGAGCCUGCCGCCGAAAUUGAACCUGAGCCAGAGCCUCAGCCUGUGACCCCAGCCCCACCACCCGCCAAGAAG | 0.225 |
| GGAGACUCAACAGCAAGAAUAUGGAAUCUUAGUGAGAACAGCACCAGUGGCUCUACACAGUCCGUACUUAGACAUUGUAUACGAGAAGGAGGGCAAGAUGUUCCAAGCAACAAGGAUGUC | 0.346 |
| GAGGUUCCUGCGGACUAGCGGUGGCUUCGCGUGGGUGGAGGAGGCGCGGCUGCAGUCUUUAAGAAACCGAAAUGGCUUCCAAAAGAGCUCUGGUCAUCCUGGCCAAAGGAGCAGAGGAGA | 0.213 |
| UUUUUAGAGUGUGGGAAAACCAAUCUGAGAAGAACAACUUACCUUGUCCUUGAUGAAGCUGACCGGAUGCUUGAUAUGGGAUUUGAACCCCAGAUAAGGAAAAUUGUGGAUCAAAUAAGA | 0.219 |

Study 3
Target: FOXO3, forkhead domain (mouse, UniProt Q9WVH4, residues 31-263)
Chain of UniProt Q9WVH4 (31-263, looked up): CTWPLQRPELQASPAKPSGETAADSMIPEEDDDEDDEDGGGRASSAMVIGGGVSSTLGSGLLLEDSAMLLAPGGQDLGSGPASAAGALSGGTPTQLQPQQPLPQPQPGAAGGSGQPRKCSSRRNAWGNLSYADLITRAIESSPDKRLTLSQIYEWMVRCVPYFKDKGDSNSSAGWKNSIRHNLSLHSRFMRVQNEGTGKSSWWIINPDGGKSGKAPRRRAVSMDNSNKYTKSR
Technique: protein-binding microarray
Molecule type: hairpin DNA
Medium: in vitro
Tested at: not given
Notes: whole hairpin DNA, median over replicate spots
Relative to: not given
Reading: higher = stronger binding
| Sequence | median fluorescence [a.u.] |
| --- | --- |
| GAGGCCATGTCGACAACGCCTCCTGGCGTTGTCGACATGGCCTCACACTC (5mC at 11 33) | 4450 |
| GAGGCCATGCCGACAACGCCTCCTGGCGTTGTCGGCATGGCCTCACACTC (5mC at 33) | 4620 |
| GAGGCCATGTAACCGACGCCTCCTGGCGTCGGTTACATGGCCTCACACTC (5mC at 14 30) | 4160 |
| GAGGCCATGTAAACCGCGCCTCCTGGCGCGGTTTACATGGCCTCACACTC | 4580 |
| GAGGCCATGCACGCAACGCCTCCTGGCGTTGCGTGCATGGCCTCACACTC (5mC at 12) | 4750 |
| GAGGCCACGTAAACAACGCCTCCTGGCGTTGTTTACGTGGCCTCACACTC (5mC at 36) | 5170 |
| GAGGCCATGTAACCACGGCCTCCTGGCCGTGGTTACATGGCCTCACACTC (5mC at 28) | 4110 |
| GAGGCCATGTAAACCGCGCCTCCTGGCGCGGTTTACATGGCCTCACACTC (5mC at 29) | 4520 |
| GAGGCCCTGCAAACAACGCCTCCTGGCGTTGTTTGCAGGGCCTCACACTC (5mC at 7) | 4940 |
| GAGGCCATGTACCCAACGCCTCCTGGCGTTGGGTACATGGCCTCACACTC | 4170 |
| GAGGCCATGTAAACATCGCCTCCTGGCGATGTTTACATGGCCTCACACTC | 4900 |
| GAGGCCATGTATCCAACGCCTCCTGGCGTTGGATACATGGCCTCACACTC | 4090 |
| GAGGCCATGTAACCACCGCCTCCTGGCGGTGGTTACATGGCCTCACACTC | 4400 |
| GAGGCCGTGTAAACAACGCCTCCTGGCGTTGTTTACACGGCCTCACACTC | 5240 |
| GAGGCCATGCAACGAACGCCTCCTGGCGTTCGTTGCATGGCCTCACACTC (5mC at 31) | 4460 |
| GAGGCCATGTAACCAGCGCCTCCTGGCGCTGGTTACATGGCCTCACACTC (5mC at 29) | 4440 |
| GAGGCCTTGTAAACAACGCCTCCTGGCGTTGTTTACAAGGCCTCACACTC | 4590 |
| GAGGCCATGCCGACAACGCCTCCTGGCGTTGTCGGCATGGCCTCACACTC | 4660 |

Study 4
Target: Max dimerization protein 1, bHLH-zipper, MAX partner unstated (MXD1, Homo sapiens, UniProt Q05195, residues 56-136)
Technique: protein-binding microarray
Molecule type: double-stranded DNA, one strand shown
Medium: in vitro
Tested at: not given
Notes: k-mer, scored over probes, only values ≥0.25
Reading: higher = stronger binding
Residues (chain): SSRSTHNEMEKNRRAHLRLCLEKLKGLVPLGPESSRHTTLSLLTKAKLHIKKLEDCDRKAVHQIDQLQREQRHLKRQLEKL
| Sequence | E-score |
| --- | --- |
| AGAGCACG | 0.352 |
| CACGCGGG | 0.442 |
| AAACACGC | 0.397 |
| CTCACGCA | 0.263 |
| ACACGAGG | 0.458 |
| AATGGCAC | 0.253 |
| CCCTCCCA | 0.343 |
| ACTTGCAC | 0.254 |
| AATGCACG | 0.299 |
| CATGGCTA | 0.306 |
| CGGCCACG | 0.311 |
| CCATGCCA | 0.325 |

Study 5
Target: CCNE2, cyclin fold, Cln2 fusion (human)
Technique: yeast growth competition, sequencing
Medium: yeast
Notes: weak parent motif
Relative to: not given
Reading: higher = stronger binding
Parent: MICAL3 docking peptide (human); LQLRRQLSFSEDS; partner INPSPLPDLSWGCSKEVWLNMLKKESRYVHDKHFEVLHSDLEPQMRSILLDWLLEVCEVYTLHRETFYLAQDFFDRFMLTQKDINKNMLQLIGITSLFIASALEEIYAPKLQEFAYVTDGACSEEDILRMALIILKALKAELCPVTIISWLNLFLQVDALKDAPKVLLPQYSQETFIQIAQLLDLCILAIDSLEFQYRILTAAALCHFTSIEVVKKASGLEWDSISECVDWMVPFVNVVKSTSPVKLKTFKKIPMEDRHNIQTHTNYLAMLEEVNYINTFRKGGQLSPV
| Substitution | normalised enrichment score |
| --- | --- |
| LQLRRQLTFSEDS [S8T] | 0.139 |
| LHLRRQLSFSEDS [Q2H] | 0.262 |
| LQLRRQLSFSGDS [E11G] | 0.656 |
| LQLKRQLSFSEDS [R4K] | 0.271 |
| LQCRRQLSFSEDS [L3C] | 2.76 |
| LQLRRQKSFSEDS [L7K] | 0.0973 |
| LQLRRQISFSEDS [L7I] | 0.337 |
| LQLRRHLSFSEDS [Q6H] | -0.103 |
| LCLRRQLSFSEDS [Q2C] | 0.484 |
| LMLRRQLSFSEDS [Q2M] | 0.116 |
| LQLRRQLFFSEDS [S8F] | 0.917 |
| LQLIRQLSFSEDS [R4I] | 0.211 |
| LQLRRQLSFSEES [D12E] | 0.412 |
| LQLRRQLSFSERS [D12R] | 0.318 |
| LQLRRQLSFSHDS [E11H] | 0.163 |
| LQLPRQLSFSEDS [R4P] | -0.0148 |
| LQLRRQLYFSEDS [S8Y] | 0.507 |
| LQLRRQDSFSEDS [L7D] | -0.124 |
| LQLRRQLSFSDDS [E11D] | 0.215 |
| LQLRRQQSFSEDS [L7Q] | 0.0257 |
| LQLRRQNSFSEDS [L7N] | 0.0175 |

Study 6
Target: Histone acetyltransferase KAT6A, winged helix 1, GST fusion (KAT6A, Homo sapiens, UniProt Q92794, residues 1-85)
Technique: protein binding microarray
Molecule type: double-stranded DNA, one strand shown
Medium: in vitro
Tested at: not given
Notes: 8-mer, flanks averaged, mean of 2 arrays, mostly near background
Relative to: not given
Reading: higher = stronger binding
Target sequence (chain): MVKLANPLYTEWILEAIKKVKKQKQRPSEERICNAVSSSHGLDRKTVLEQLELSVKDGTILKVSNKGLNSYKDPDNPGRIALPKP
| Sequence | E-score |
| --- | --- |
| TCTAGGAA | -0.253 |
| CAAAGTGA | -0.156 |
| AGCAGGAA | -0.236 |
| CGTACAGC | 0.158 |
| GACGCAGA | 0.176 |
| GACGCCTC | -0.0183 |
| CCTTGAAG | -0.0509 |
| AGTCCCGC | 0.265 |
| GAGGCTCA | -0.00977 |
| CTAGATGC | -0.0372 |
| AAAATTTG | -0.272 |
| CGCGCGCC | 0.464 |
| CAGGCAGC | -0.0358 |
| GAAGGGAC | -0.0587 |
| GGTCGCCA | 0.074 |
| GTTTTCCA | -0.0107 |
| AGCGAACT | -0.193 |
| GACGTTCC | -0.00512 |

Study 7
Target: Sal-like protein 4, full length isoform A (SALL4, Homo sapiens, UniProt Q9UJQ4, residues 1-1053)
Chain of UniProt Q9UJQ4 (whole entry, looked up): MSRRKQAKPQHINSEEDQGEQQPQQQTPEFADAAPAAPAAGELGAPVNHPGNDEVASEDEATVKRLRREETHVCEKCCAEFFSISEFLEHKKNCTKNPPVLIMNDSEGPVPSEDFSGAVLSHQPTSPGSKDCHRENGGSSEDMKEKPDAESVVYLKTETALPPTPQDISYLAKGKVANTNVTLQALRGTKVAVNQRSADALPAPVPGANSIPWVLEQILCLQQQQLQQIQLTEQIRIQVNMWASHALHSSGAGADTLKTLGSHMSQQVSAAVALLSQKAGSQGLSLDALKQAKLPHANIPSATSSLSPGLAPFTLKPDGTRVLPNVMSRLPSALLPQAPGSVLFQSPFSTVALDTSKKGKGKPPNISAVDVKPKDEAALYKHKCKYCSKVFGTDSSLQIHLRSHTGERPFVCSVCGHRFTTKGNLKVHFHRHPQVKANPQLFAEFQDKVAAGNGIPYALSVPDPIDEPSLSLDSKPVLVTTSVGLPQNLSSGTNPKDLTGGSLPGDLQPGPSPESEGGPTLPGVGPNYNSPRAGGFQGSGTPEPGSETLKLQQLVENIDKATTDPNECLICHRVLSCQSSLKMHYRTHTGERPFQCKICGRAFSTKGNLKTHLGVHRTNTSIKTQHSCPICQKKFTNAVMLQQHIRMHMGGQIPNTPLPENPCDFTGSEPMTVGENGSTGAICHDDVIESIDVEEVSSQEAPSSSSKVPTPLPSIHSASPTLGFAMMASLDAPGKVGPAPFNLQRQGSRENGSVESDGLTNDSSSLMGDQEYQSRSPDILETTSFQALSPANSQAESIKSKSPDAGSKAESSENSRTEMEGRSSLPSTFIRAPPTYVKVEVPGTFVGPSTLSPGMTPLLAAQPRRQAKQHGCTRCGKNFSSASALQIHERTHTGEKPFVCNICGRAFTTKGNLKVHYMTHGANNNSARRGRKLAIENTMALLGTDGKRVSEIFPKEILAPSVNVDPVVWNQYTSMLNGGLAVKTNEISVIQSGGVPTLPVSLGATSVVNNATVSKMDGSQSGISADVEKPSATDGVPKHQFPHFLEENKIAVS
Technique: universal PBM
Molecule type: double-stranded DNA, one strand shown
Medium: in vitro
Tested at: 600 nM
Notes: 8-mer, flanks averaged, mean of replicates
Reading: higher = stronger binding
| Sequence | E-score |
| --- | --- |
| ACCCCTTG | -0.312 |
| ACGCTTGG | -0.147 |
| AAACGTCT | 0.106 |
| AAATTCGC | 0.144 |
| ATTCTACC | 0.235 |
| CGGTCCTC | -0.301 |
| CAAACTGA | -0.00307 |
| ACCGAGTG | -0.241 |
| ACTGGGAA | -0.0854 |
| AGGGTTCA | -0.119 |
| ATGTGCAA | 0.147 |
| CCATTACC | -0.159 |
| AAGCCATG | -0.0903 |
| CCAGGAAC | -0.303 |
| GTTGGCAA | 0.0189 |
| CCCGCAAG | -0.349 |
| GCGAAGCA | -0.141 |
| ATTAGGAA | 0.206 |
| CATACTCC | 0.0829 |

Some of these lines once more (study 6):
| Sequence | E-score |
| --- | --- |
| GACGCCTC | -0.0183 |
| CCTTGAAG | -0.0509 |
| AGTCCCGC | 0.265 |
| GAGGCTCA | -0.00977 |
| CTAGATGC | -0.0372 |
| AAAATTTG | -0.272 |
